Assay results gathered from unrelated publications.
Compare with care: the assays were run in different laboratories. Numbers after ± are the reported error. Ends that are not written are not given here. No end group written: not given here. * marks the point of attachment.
Gnao1: Gnao1, AlexaFluor 532 label (Rattus norvegicus, UniProt P59215)
Chain of UniProt P59215 (whole entry, looked up): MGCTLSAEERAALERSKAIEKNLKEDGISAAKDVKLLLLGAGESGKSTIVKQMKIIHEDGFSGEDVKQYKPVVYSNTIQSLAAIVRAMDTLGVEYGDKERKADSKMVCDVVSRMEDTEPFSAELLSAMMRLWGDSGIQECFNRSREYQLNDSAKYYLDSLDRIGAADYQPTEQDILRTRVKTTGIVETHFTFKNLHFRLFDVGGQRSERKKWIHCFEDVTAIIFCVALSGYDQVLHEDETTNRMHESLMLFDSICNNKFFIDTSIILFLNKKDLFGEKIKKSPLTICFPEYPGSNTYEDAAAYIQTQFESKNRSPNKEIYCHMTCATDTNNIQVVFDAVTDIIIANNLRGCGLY
B1: RGS16 (Homo sapiens, UniProt O15492); sequence looked up; chain MCRTLAAFPTTCLERAKEFKTRLGIFLHKSELGCDTGSTGKFEWGSKHSKENRNFSEDVLGWRESFDLLLSSKNGVAAFHAFLKTEFSEENLEFWLACEEFKKIRSATKLASRAHQIFEEFICSEAPKEVNIDHETHELTRMNLQTATATCFDAAQGKTRTLMEKDSYPRFLKSPAYRDLAAQASAASATLSSCSLDEPSHT
B2: MIF4GD E200A (Homo sapiens, UniProt A9UHW6); sequence looked up; chain MGEPSREEYKIQSFDAETQQLLKTALKDPGAVDLEKVANVIVDHSLQDCVFSKEAGRMCYAIIQAESKQAGQSVFRRGLLNRLQQEYQAREQLRARSLQGWVCYVTFICNIFDYLRVNNMPMMALVNPVYDCLFRLAQPDSLSKEEEVDCLVLQLHRVGEQLEKMNGQRMDELFVLIRDGFLLPTGLSSLAQLLLLEIIAFRAAGWKTTPAAHKYYYSEVSD
B3: RGS6 RGS homology domain 336-441 (Homo sapiens, UniProt P49758); sequence looked up; chain SFDEILKDQVGRDQFLRFLESEFSSENLRFWLAVQDLKKQPLQDVAKRVEEIWQEFLAPGAPSAINLDSHSYEITSQNVKDGGRYTFEDAQEHIYKLMKSDSYARF
B4: Sas-4 708-901 (Drosophila melanogaster, UniProt Q9VI72); sequence looked up; chain ANSSSDFKREITNADGSKDIWYPNGNLKKISADGMNLRMLYFNKDIKETNIREGTVKYYYAETNTWHTSYLDGLEILEFPNGQTEHRRKDGTVEIHFPNNSIKIVDPSDTEKLEEWRYADGTHLVQLRNGDKILNLPNGQKEIHTKLNKRREYPDGTVKLVYPDGSQETRYSNGRVRLKDKDGKLIMDTDYAKY
B5: RGS4 residues 52-end 52-205 del1-51 (UniProt P49799); sequence looked up; chain SQEEVKKWAESLENLINHECGLAAFKAFLKSEYSEENIDFWISCEEYKKIKSPSKLSPKAKKIYNEFISVQATKEVNLDSCTREETSRNMLEPTITCFDEAQKKIFNLMEKDSYRRFLKSRFYLDLTNPSSCGAEKQKGAKSSADCTSLVPQCA
B6: CSF1 33-496 (Homo sapiens, UniProt P09603); chain EEVSEYCSHMIGSGHLQSLQRLIDSQMETSCQITFEFVDQEQLKDPVCYLKKAFLLVQDIMEDTMRFRDNTPNAIAIVQLQELSLRLKSCFTKDYEEHDKACVRTFYETPLQLLEKVKNVFNETKNLLDKDWNIFSKNCNNSFAECSSQDVVTKPDCNCLYPKAIPSSDPASVSPHQPLAPSMAPVAGLTWEDSEGTEGSSLLPGEQPLHTVDPGSAKQRPPRSTCQSFEPPETPVVKDSTIGGSPQPRPSVGAFNPGMEDILDSAMGTNWVPEEASGEASEIPVPQGTELSPSRPGGGSMQTEPARPSNFLSASSPLPASAKGQQPADVTGTALPRVGPVRPTGQDWNHTPQKTDHPSALLRDPPEPGSPRISSLRPQGLSNPSTLSAQPQLSRSHSSGSVLPLGELEGRRSTRDRRSPAEPEGGPASEGAARPLPRFNSVPLTDTGHERQSEGSFSPQLQES
B7: FDX1 61-184 (Homo sapiens, UniProt P10109); sequence looked up; chain SSSEDKITVHFINRDGETLTTKGKVGDSLLDVVVENNLDIDGFGACEGTLACSTCHLIFEDHIYEKLDAITDEENDMLDLAYGLTDRSRLGCQICLTKSMDNMTVRVPETVADARQSIDVGKTS
B8: CD40LG soluble, residues 116-261 (Homo sapiens); glycosylated; chain NMGDQNPQIAAHVISEASSKTTSVLQWAEKGYYTMSNNLVTLENGKQLTVKRQGLYYIYAQVTFCSNREASSQAPFIASLCLKSPGRFERILLRAANTHSSAKPCGQQSIHLGGVFELQPGASVFVNVTDPSQVSHGTGFTSFGLLKL
B9: CIRBP (Homo sapiens, UniProt Q14011); PRMT1-methylated arginines in RGG region; sequence looked up; chain MASDEGKLFVGGLSFDTNEQSLEQVFSKYGQISEVVVVKDRETQRSRGFGFVTFENIDDAKDAMMAMNGKSVDGRQIRVDQAGKSSDNRSRGYRGGSAGGRGFFRGGRGRGRGFSRGGGDRGYGGNRFESRSGGYGGSRDYYSSRSQSGGYSDRSSGGSYRDSYDSYATHNE
B10: ftsZ (Bacillus subtilis, UniProt P17865); sequence looked up; chain MLEFETNIDGLASIKVIGVGGGGNNAVNRMIENEVQGVEYIAVNTDAQALNLSKAEVKMQIGAKLTRGLGAGANPEVGKKAAEESKEQIEEALKGADMVFVTAGMGGGTGTGAAPVIAQIAKDLGALTVGVVTRPFTFEGRKRQLQAAGGISAMKEAVDTLIVIPNDRILEIVDKNTPMLEAFREADNVLRQGVQGISDLIATPGLINLDFADVKTIMSNKGSALMGIGIATGENRAAEAAKKAISSPLLEAAIDGAQGVLMNITGGTNLSLYEVQEAADIVASASDQDVNMIFGSVINENLKDEIVVTVIATGFIEQEKDVTKPQRPSLNQSIKTHNQSVPKREPKREEPQQQNTVSRHTSQPADDTLDIPTFLRNRNKRG
B11: UGT1A9 (Homo sapiens, UniProt O60656); chain GKLLVVPMDGSHWFTMRSVVEKLILRGHEVVVVMPEVSWQLGRSLNCTVKTYSTSYTLEDLDREFKAFAHAQWKAQVRSIYSLLMGSYNDIFDLFFSNCRSLFKDKKLVEYLKESSFDAVFLDPFDNCGLIVAKYFSLPSVVFARGILCHYLEEGAQCPAPLSYVPRILLGFSDAMTFKERVRNHIMHLEEHLLCHRFFKNALEIASEILQTPVTEYDLYSHTSIWLLRTDFVLDYPKPVMPNMIFIGGINCHQGKPLPMEFEAYINASGEHGIVVFSLGSMVSEIPEKKAMAIADALGKIPQTVLWRYTGTRPSNLANNTILVKWLPQNDLLGHPMTRAFITHAGSHGVYESICNGVPMVMMPLFGDQMDNAKRMETKGAGVTLNVLEMTSEDLENALKAVINDKSYKENIMRLSSLHKDRPVEPLDLAVFWVEFVMRHKGAPHLRPAAHDLTWYQYHSLDVIGFLLAVVLTVAFITFKCCAYGYRKCLGKKGRVKKAHKSKTH
Chain of UniProt O43766 (whole entry, looked up): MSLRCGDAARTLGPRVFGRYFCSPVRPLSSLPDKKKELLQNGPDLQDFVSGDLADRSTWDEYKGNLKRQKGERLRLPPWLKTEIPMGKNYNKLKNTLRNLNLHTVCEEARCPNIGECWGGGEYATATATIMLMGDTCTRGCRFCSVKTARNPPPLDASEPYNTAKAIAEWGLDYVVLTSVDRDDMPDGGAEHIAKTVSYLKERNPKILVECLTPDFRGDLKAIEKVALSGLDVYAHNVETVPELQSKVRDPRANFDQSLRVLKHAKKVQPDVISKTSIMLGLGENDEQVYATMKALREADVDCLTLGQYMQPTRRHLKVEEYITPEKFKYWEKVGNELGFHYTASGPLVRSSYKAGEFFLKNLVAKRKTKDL
Chain of UniProt Q9Y5L0 (whole entry, looked up): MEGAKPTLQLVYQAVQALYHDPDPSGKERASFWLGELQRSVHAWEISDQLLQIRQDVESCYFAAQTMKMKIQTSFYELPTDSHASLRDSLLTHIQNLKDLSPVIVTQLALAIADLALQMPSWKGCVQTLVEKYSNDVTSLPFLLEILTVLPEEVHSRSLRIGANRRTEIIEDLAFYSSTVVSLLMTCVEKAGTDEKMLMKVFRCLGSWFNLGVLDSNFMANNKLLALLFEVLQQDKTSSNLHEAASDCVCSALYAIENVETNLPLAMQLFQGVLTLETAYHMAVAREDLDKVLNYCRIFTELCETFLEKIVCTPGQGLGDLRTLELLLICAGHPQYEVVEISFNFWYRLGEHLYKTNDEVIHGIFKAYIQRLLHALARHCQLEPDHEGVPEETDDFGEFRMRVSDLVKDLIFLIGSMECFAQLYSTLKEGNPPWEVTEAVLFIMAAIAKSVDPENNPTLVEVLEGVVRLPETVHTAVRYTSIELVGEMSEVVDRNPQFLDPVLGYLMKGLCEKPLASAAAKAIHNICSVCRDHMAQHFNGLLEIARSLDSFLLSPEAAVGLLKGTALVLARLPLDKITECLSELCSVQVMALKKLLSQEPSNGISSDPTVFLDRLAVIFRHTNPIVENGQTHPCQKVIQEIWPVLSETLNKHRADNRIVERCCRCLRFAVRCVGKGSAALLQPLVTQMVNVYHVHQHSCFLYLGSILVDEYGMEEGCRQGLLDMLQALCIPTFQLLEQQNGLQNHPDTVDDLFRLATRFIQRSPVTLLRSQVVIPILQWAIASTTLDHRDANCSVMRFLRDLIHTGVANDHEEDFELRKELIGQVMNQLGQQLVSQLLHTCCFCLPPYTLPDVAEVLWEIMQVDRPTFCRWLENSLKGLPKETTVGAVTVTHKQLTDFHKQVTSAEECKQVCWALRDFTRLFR
Chain of UniProt Q14493 (whole entry, looked up): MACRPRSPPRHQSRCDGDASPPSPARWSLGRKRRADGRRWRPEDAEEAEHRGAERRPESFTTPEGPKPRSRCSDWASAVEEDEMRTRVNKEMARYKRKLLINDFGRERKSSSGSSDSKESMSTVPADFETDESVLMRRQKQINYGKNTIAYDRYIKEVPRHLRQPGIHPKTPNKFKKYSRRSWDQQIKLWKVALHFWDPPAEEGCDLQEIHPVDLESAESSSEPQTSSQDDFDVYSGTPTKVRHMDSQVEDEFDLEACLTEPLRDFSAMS
Chain of UniProt P40013 (whole entry, looked up): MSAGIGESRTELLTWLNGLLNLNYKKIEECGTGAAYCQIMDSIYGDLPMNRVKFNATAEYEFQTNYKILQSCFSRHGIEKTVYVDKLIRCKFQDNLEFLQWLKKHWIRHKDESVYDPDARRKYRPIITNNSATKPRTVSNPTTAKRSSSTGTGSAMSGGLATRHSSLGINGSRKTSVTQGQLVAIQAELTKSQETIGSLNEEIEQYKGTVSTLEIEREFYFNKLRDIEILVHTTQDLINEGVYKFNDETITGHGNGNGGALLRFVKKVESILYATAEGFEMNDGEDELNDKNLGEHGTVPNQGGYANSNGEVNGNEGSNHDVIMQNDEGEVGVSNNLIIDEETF
Chain of UniProt Q24117 (whole entry, looked up): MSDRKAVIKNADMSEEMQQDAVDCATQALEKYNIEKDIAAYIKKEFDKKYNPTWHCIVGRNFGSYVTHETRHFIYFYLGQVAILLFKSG
Chain of UniProt P54166 (whole entry, unmodified, looked up): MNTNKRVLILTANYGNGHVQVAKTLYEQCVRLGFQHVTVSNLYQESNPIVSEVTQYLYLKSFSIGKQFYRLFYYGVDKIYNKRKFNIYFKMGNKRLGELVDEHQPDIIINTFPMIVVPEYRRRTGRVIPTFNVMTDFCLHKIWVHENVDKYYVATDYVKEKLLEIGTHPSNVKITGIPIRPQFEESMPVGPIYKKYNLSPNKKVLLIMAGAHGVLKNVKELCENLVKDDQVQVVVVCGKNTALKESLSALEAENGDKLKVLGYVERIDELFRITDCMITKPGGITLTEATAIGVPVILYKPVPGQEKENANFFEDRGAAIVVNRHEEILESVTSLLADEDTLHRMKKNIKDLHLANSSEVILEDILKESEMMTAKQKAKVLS
Chain of UniProt P35269 (whole entry, looked up): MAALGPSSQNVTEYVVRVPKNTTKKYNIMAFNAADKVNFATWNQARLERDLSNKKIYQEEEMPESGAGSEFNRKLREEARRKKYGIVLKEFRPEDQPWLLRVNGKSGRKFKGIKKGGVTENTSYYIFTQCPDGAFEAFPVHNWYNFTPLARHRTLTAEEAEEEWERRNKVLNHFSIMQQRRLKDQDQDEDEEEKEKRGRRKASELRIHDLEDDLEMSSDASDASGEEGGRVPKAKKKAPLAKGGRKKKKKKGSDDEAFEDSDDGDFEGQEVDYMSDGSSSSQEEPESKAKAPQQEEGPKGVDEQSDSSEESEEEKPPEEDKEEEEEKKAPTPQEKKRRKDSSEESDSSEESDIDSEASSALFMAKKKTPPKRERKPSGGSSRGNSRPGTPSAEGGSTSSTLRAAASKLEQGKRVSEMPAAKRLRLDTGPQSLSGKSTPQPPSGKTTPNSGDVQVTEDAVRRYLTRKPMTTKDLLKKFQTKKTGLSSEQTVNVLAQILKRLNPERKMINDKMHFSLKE
Chain of UniProt P12004 (whole entry, looked up): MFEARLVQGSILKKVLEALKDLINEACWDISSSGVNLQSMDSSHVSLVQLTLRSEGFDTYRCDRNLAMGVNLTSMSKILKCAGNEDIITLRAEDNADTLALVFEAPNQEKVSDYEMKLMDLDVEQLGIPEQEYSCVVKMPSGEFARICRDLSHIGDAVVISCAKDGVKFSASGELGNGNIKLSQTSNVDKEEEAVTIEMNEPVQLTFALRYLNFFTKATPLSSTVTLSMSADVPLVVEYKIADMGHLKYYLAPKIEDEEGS
Chain of UniProt P0A988 (whole entry, looked up): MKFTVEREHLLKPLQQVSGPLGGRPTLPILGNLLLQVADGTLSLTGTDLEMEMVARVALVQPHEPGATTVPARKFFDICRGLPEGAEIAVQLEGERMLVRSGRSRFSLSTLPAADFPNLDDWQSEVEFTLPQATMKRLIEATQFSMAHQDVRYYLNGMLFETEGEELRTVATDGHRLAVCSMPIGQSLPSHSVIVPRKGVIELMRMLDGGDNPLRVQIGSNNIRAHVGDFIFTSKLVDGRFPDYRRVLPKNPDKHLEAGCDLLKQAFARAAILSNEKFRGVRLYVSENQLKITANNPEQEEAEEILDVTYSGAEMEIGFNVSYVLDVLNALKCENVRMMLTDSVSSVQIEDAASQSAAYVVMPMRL
Chain of UniProt P61981 (whole entry, looked up): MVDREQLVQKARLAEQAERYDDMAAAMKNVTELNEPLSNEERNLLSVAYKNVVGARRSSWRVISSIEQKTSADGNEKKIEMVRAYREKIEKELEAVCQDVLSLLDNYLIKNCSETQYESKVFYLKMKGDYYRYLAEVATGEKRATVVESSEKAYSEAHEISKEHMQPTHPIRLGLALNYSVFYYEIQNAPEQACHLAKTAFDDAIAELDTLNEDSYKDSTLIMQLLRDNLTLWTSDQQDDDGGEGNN

| Molecule | target or system | assay | test system | conditions | measurement | value |
| --- | --- | --- | --- | --- | --- | --- |
| B1 (RGS16) | Gnao1 | flow cytometry |  | pH 8.0, together with: GDP-AlF4- | Kd | 0.037 µM |
| Bmper (Mus musculus, UniProt Q8CJ69) | Chrd (Mus musculus, UniProt Q9Z0E2) | SPR |  | one-to-one fit | Kd | 0.0014 ± 0.0004 µM |
| B2 (MIF4GD E200A) | SLBP, phosphorylated, multiple sites (Homo sapiens, UniProt Q14493) | SPR |  | pH 7.4, 25 °C, NaCl 150 mM | Kd | 0.066 ± 0.02 µM |
| B3 | Gnao1 | flow cytometry |  | pH 8.0, together with: GDP-AlF4- | Kd | 0.34 µM |
| B4 (Sas-4 708-901) | Plk4 PB1-PB2 382-602 (Drosophila melanogaster, UniProt O97143) | MST |  | partially purified labeled partner | Kd | 28.2 µM |
| 5FAM-ARRGKKKSGCLVL (RHOA residues 181-193 (Homo sapiens); N-terminal 5-FAM; 5FAM = O=C1OC2(c3ccc(O)cc3Oc3cc(O)ccc32)c2ccc(C(=O)*)cc21) | RAP1GDS1 (Homo sapiens, UniProt P52306-2) | fluorescence polarization | peptide |  | Kd | 8.1 ± 1.5 µM |
| Ac-SAAASSSWHTLFTAEEGQLYG-NH2 (AR 426-446 (Homo sapiens); N-acetyl; C-amide) | GTF2F1 450-517 (Homo sapiens, UniProt P35269) | NMR titration | peptide | pH 7.4, 298 K | Kd | 1750 ± 60 µM |
| B5 | Gnao1 | flow cytometry |  | together with: GDP-AlF4- | Kd | 0.115 µM |
| FGF14 fragment, N-terminal adamantanecarbonyl, Glu tert-butyl ester, C-terminal ethyl ester (Homo sapiens) | FGF14 64-252 (Homo sapiens, UniProt Q92915-2) | SPR |  |  | Kd | 9.47 ± 1.22 µM |
| KAR9 50-residue Site2 peptide (Saccharomyces cerevisiae) | BIM1 194-344 (Saccharomyces cerevisiae, UniProt P40013) | ITC |  | pH 7.5, 25 °C, NaCl 150 mM | Kd | 0.12 µM |
| B6 (CSF1 33-496) | CSF1R Fc fusion D1-D5 M149K (Homo sapiens, UniProt P07333) | SPR |  | pH 7.4, NaCl 0.15 M | Kd | 0.0021 µM |
| dinB (Escherichia coli, UniProt Q47155) | dnaN 1-366 (Escherichia coli, UniProt P0A988) | SPR |  | pH 7.4, NaCl 150 mM | Kd | 0.465 µM |
| YWHAG (Homo sapiens, UniProt P61981) | USP8 fragment, pS718 (Homo sapiens) | DUB activity, inhibitor |  | 5 nM p-USP8, partial inhibition, together with: Ub-AMC 1 µM | apparent relative IC50 | 0.0311 µM |
| B7 (FDX1 61-184) | LIAS 28-372, RED-NHS dye label (Homo sapiens, UniProt O43766) | MST |  | 30 min, pH 7.4, 22 °C | Kd | 6 ± 2 µM |
| B8 | CD40 extracellular domain , Fc fusion (Homo sapiens) | SPR |  |  | Kd | 0.0076 µM |
| B9 (CIRBP) | TNPO3 (Homo sapiens, UniProt Q9Y5L0) | ITC |  | pH 7.5, 25 °C, NaCl 150 mM | Kd | 1 µM |
| LDRQEEEEALQDQKRREEELGRIMVNAFDDLLDEENTIDS (asl 21-60 (Drosophila melanogaster, UniProt Q9VNE4); sequence looked up) | Plk4 cryptic polo box 383-601, lysine methylated, RED-NHS label (Drosophila, UniProt O97143) | MST |  |  | Kd | 0.88 µM |
| SYRKAIDAATQTEE (FAM83D 414-425 P425E (Homo sapiens)) | ctp 1-89 (Drosophila melanogaster, UniProt Q24117) | ITC | peptide | pH 7.5, 25 °C, NaCl 50 mM | Kd | 0.4 ± 0.1 µM |
| B10 (ftsZ) | UgtP F112A/V117A/E306A/N309A (Bacillus subtilis, UniProt P54166) | BLI |  | pH 8.0, 30 °C, NaCl 100 mM, with UDP-glc, together with: UDP-glc | Kd | 0.02 µM |
| LHNHYT |  |  | peptide, human polyclonal IgM RF MCC | concentration not given, 5 µg/mL mAb II-481 coated, together with: RF at 50% max binding concentration | inhibition | 0% |
| B11 (UGT1A9) | COc1cc(/C=C/c2ccc(O)cc2)cc(OC)c1 | steady-state kinetics |  | pH 7.4, 37 °C | Vmax/Km | 1.1 µL/min/mg |
| SKTRGKAKVTGCWK (TNNT2 275-288 R286C (Homo sapiens, UniProt P45379-6); sequence looked up) | TPM1 (Oryctolagus cuniculus, UniProt P58772) | SPR | peptide | pH 7.0, KCl 0.1 M | Kd | 6.26 µM |
| CDKN1A/POLB p21 peptide with POLB PIP-box, C-terminal amide (Homo sapiens) | PCNA (Homo sapiens, UniProt P12004) | SPR |  |  | Kd | 5.73 µM |
| CIKVAVS |  |  | peptide, human polyclonal IgM RF SOR | concentration not given, 5 µg/mL mAb II-481 coated, together with: RF at 50% max binding concentration | inhibition | 0% |
| ARTKQTARKSTG-fluorescein (histone H3 2-13 (UniProt P68431); C-terminal fluorescein; sequence looked up) | BIRC2 fragment (Homo sapiens) | MST | peptide | pH 7.5, NaCl 150 mM | Kd | 1 µM |
| B7 (FDX1 61-184) | LIAS 28-372 (Homo sapiens, UniProt O43766) | MST |  | together with: FDX1 375-0.009 µM | Kd | 6 ± 2 µM |
| EDGGSFWYGAMKALAG (designed peptide) | CIB1 (Homo sapiens, UniProt Q99828) | ITC | peptide | 25 °C, together with: CaCl2 0.1 mM | Kd | 3.69 µM |

Repeated from above:
| Molecule | target or system | assay | test system | conditions | measurement | value |
| --- | --- | --- | --- | --- | --- | --- |
| SKTRGKAKVTGCWK (TNNT2 275-288 R286C (Homo sapiens, UniProt P45379-6); sequence looked up) | TPM1 (Oryctolagus cuniculus, UniProt P58772) | SPR | peptide | pH 7.0, KCl 0.1 M | Kd | 6.26 µM |
